Assay results collected from several papers.
Numbers after ± are the reported error.
Cell line: HepG2

Structure (SMILES) | test | conditions | IC50
CC(C)(C)c1cc(C(C)(C)C)c(NC(=O)c2c[nH]c3ccccc3c2=O)cc1O | oxygen consumption rate, Seahorse Mito Stress Test | 1 h | 11.1 µM
CNC(=O)c1cc(Oc2ccc(NC(=O)Nc3ccc(Cl)c(C(F)(F)F)c3)cc2)ccn1 | cell proliferation, MTT | 48 h, miR-140-3p plus inhibitor | 1.4 ± 0.26 µM
CCCCNC(=O)c1ccc(NC(=O)Cn2c(=O)c(C)nc3ccccc32)cc1 | cell growth or viability, MTT |  | 24.5 µM
Cc1cccc(NC(=O)/C(=C/c2ccc(F)cc2)NC(=O)c2ccccc2)c1 |  | concentration not given | 16.5 ± 0.77 µM
Cc1ccc(NCC(=O)n2ncc3c2ncn2nc(SCC#N)nc32)cc1 | cell growth or viability, MTT | 48 h | 0.074 µM
COc1cccc2c1C(=O)c1c(O)c3c(c(O)c1C2=O)C[C@@](O)(C(=O)CO)C[C@@H]3O[C@H]1C[C@H](N)[C@H](O)[C@H](C)O1 | cell growth or viability, MTT |  | 2.78 µM
COc1ccc(NC(=O)CN2CCN(c3nc4ccccc4nc3Cl)CC2)cc1 | cell growth or viability, MTT | 24 h | 469 µM
CSc1ccc2c(c1)C(N1CCN(C)CC1)Cc1ccccc1S2 (centres unmarked) | cell viability, ATP content | 24 h | 63.2 ± 10.3 µM
O=C(/C=C/c1ccc(O)cc1)CC(=O)/C=C/c1ccc(O)cc1 | cell growth or viability, MTT | 48 h | 19.5 µg/mL
CCCCCCSc1nnc(-c2ccc(-c3cc(OC)c(OC)c(OC)c3)nc2C)o1 | cell growth or viability, MTT |  | 12.7 µM
CCOC(=O)Cn1c(-c2ccc(Cl)cc2)cc(-c2ccc(O)c(OC)c2)c(C#N)c1=O | cell growth or viability, MTT |  | 2.19 µM
COc1cc(-c2ccc(C(=O)N/N=C/c3ccc(Cl)cc3)c(C)n2)cc(OC)c1OC | cell growth or viability, MTT |  | 22.4 µM
Cc1ccc(NCC(=O)n2ncc3c2ncn2nc(SCC(O)CO)nc32)cc1 (centres unmarked) | cell growth or viability, MTT | 48 h | 0.063 µM
COc1ccc(-c2cc(-c3ccc(Cl)cc3)c3c(=O)[nH]c(=O)[nH]c3n2)cc1 | cell growth or viability, MTT | 48 h | < 5 µM
O=C(CN1CCN(c2nc3ccccc3nc2Cl)CC1)Nc1ccc(F)cc1 | cell growth or viability, MTT | 24 h | 38.6 µM
O=C(Nc1ccc(O)cc1)/C(=C/c1ccc(F)cc1)NC(=O)c1ccccc1 |  | concentration not given | 7.81 ± 0.34 µM
CC(=O)c1ccc(NC(=O)CN2CCN(c3nc4ccccc4[nH]c3=O)CC2)cc1 | cell viability, MTT | 24 h | 8.85 µM
O=C(N/N=C/c1ccc(F)cc1)/C(=C/c1ccc(F)cc1)NC(=O)c1ccccc1 |  | concentration not given | 38.1 ± 1.88 µM
O=C1Nc2ccccc2C1=NN=c1sc(-c2cccs2)nn1-c1ccc([N+](=O)[O-])cc1 | cell growth or viability |  | 22.4 µM
CCOC(=O)c1nc2c(c(-c3ccc(Cl)cc3)c(C#N)c(=O)n2C2CCCCC2)c(=O)[nH]1 | cell growth or viability, MTT |  | ≥ 50 µM
COc1cc(-c2ccc(-c3nnc(SCC4CCCCC4)o3)c(C)n2)cc(OC)c1OC | cell growth or viability, MTT |  | 15.7 µM
Cc1nc2ccccc2nc1SCC(=O)Nc1ccc(C(=O)Nc2ccc([N+](=O)[O-])cc2O)cc1 | cell growth or viability, MTT |  | 42.8 µM
Cc1ccc(NC(=O)CN2CCN(c3nc4ccccc4nc3Cl)CC2)cc1 | cell growth or viability, MTT | 24 h | 8.08 µM

Some of these lines once more:
Structure (SMILES) | test | conditions | IC50
CSc1ccc2c(c1)C(N1CCN(C)CC1)Cc1ccccc1S2 (centres unmarked) | cell viability, ATP content | 24 h | 63.2 ± 10.3 µM
O=C(/C=C/c1ccc(O)cc1)CC(=O)/C=C/c1ccc(O)cc1 | cell growth or viability, MTT | 48 h | 19.5 µg/mL
CCCCCCSc1nnc(-c2ccc(-c3cc(OC)c(OC)c(OC)c3)nc2C)o1 | cell growth or viability, MTT |  | 12.7 µM
